Experimental data collected from several papers.
PDE10A: cAMP and cAMP-inhibited cGMP 3',5'-cyclic phosphodiesterase 10A (PDE10A, Homo sapiens, UniProt Q9Y233)
Sequence of UniProt Q9Y233 (whole entry, looked up): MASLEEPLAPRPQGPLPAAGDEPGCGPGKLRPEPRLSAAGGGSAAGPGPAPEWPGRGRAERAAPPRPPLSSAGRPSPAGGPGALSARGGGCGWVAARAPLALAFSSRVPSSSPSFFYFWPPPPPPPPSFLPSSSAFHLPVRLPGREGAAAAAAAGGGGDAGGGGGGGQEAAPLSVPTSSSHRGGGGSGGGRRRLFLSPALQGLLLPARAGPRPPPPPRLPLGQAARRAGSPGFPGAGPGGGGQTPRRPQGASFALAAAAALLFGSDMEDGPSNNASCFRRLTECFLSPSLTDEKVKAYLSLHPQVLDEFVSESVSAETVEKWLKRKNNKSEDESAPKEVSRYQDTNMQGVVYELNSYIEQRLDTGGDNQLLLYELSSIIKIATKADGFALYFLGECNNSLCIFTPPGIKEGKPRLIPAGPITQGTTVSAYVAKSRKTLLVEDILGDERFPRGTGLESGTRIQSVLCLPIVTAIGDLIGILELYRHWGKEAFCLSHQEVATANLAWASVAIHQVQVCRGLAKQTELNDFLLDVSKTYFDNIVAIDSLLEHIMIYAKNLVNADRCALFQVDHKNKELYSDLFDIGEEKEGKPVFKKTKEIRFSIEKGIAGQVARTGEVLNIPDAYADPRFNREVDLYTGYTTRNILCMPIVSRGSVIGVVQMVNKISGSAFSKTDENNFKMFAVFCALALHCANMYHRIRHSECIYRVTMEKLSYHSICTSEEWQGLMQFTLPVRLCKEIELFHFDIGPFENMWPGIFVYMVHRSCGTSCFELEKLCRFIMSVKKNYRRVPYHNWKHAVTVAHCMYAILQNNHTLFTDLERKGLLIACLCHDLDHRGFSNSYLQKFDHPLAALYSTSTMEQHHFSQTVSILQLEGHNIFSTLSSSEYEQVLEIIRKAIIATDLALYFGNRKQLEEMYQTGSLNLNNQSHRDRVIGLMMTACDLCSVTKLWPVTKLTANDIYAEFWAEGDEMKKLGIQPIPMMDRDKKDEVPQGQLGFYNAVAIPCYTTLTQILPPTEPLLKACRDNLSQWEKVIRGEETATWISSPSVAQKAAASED
SCN1A: Sodium channel protein type 1 subunit alpha (SCN1A, Homo sapiens, UniProt P35498)
PTGS2: Prostaglandin G/H synthase 2 (PTGS2, Homo sapiens, UniProt P35354)
Sequence of UniProt P35354 (whole entry, looked up): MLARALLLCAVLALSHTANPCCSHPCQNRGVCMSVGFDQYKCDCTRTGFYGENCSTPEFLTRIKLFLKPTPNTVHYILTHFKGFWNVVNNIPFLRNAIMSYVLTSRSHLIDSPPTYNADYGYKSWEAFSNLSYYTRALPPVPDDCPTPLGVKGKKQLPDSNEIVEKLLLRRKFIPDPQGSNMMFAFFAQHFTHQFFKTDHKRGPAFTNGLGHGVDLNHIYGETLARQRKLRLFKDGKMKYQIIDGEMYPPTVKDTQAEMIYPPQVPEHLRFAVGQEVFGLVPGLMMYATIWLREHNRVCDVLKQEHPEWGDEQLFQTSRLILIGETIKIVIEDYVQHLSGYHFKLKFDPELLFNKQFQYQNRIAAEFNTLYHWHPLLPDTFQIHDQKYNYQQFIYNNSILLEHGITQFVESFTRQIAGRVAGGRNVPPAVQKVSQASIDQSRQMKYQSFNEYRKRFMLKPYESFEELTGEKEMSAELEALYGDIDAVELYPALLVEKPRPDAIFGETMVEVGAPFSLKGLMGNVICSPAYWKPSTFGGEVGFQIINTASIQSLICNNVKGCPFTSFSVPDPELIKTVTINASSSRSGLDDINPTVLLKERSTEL
SIRT6: NAD-dependent protein deacylase sirtuin-6 (SIRT6, Homo sapiens, UniProt Q8N6T7)
Sequence of UniProt Q8N6T7 (whole entry, looked up): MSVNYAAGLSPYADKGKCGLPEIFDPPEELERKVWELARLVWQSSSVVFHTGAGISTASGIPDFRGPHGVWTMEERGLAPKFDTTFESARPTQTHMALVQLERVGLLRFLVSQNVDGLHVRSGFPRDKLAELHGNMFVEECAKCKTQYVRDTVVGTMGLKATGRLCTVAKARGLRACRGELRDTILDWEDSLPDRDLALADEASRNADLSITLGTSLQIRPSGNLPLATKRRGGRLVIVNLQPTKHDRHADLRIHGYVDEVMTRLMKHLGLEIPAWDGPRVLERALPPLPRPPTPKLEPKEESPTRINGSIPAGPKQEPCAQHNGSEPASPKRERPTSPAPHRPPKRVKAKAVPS
HDAC8: Histone deacetylase 8 (HDAC8, Homo sapiens, UniProt Q9BY41)
Sequence of UniProt Q9BY41 (whole entry, looked up): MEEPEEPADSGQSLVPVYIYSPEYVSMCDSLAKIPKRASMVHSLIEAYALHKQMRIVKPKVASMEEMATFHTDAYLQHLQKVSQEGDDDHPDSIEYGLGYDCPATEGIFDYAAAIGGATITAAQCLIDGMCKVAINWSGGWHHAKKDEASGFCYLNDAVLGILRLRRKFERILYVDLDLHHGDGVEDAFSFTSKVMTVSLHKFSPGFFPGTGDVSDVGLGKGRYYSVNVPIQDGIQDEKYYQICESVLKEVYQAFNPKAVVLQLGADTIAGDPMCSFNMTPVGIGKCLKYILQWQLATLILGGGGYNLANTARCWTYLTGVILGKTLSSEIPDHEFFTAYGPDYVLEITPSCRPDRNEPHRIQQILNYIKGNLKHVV
DHFR: Dihydrofolate reductase (DHFR, Homo sapiens, UniProt P00374)
Sequence of UniProt P00374 (whole entry, looked up): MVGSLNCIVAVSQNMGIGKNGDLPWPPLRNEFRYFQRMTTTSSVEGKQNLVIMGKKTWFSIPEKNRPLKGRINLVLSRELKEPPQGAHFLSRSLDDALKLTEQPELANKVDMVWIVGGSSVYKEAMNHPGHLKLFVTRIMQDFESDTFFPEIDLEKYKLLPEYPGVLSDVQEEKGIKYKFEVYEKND
USP51: Ubiquitin carboxyl-terminal hydrolase 51 (USP51, Homo sapiens, UniProt Q70EK9)
Sequence of UniProt Q70EK9 (whole entry, looked up): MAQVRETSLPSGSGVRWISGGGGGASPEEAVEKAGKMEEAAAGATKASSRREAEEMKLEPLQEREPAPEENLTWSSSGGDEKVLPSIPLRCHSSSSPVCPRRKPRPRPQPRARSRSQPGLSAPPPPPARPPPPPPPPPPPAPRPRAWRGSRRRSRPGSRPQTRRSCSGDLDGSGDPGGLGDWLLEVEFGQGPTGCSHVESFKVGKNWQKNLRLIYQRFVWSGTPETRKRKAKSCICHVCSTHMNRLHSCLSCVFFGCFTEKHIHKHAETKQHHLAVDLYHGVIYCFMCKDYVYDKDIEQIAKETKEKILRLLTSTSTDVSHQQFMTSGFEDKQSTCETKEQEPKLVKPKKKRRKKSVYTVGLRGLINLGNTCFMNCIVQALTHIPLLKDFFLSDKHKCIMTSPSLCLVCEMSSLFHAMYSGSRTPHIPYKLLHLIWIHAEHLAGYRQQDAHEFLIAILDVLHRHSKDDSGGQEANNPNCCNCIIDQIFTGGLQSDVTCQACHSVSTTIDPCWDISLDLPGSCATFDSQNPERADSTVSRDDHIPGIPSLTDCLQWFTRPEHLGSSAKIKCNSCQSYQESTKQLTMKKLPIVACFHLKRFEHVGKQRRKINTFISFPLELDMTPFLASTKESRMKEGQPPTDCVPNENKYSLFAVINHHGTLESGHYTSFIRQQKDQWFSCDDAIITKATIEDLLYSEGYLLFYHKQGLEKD
HDAC6: Protein deacetylase HDAC6 (HDAC6, Homo sapiens, UniProt Q9UBN7)
Sequence of UniProt Q9UBN7 (whole entry, looked up): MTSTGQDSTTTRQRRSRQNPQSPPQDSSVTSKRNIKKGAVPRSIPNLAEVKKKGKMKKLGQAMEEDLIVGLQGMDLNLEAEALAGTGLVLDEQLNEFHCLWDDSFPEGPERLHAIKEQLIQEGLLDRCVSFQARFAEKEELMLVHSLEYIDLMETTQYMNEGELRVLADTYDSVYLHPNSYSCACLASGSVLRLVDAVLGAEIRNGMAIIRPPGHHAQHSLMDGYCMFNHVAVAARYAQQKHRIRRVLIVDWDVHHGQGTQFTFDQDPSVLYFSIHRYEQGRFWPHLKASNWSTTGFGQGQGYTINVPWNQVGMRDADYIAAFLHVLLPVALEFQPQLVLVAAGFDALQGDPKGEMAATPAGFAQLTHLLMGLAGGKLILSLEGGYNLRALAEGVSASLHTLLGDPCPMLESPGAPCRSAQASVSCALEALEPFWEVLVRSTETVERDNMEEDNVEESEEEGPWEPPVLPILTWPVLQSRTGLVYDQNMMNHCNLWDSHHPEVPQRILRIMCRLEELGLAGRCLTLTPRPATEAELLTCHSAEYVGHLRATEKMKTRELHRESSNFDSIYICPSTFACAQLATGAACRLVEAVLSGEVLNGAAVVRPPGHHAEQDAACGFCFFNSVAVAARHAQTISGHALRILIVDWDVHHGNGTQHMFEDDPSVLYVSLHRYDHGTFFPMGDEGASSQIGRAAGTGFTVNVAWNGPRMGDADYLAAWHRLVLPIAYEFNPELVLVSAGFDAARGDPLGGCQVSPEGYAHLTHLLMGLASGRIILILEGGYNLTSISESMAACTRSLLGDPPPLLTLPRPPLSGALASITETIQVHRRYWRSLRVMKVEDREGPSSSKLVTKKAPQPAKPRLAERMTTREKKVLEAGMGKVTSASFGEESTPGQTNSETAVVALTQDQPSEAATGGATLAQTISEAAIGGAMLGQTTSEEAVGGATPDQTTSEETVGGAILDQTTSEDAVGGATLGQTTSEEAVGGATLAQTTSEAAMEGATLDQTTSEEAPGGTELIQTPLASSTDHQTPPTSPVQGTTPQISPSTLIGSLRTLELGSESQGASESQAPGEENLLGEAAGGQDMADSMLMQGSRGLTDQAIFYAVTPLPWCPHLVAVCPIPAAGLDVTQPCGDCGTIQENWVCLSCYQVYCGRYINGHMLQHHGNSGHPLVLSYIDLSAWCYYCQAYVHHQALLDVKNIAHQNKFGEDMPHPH
HDAC1: Histone deacetylase 1 (HDAC1, Homo sapiens, UniProt Q13547)
Sequence of UniProt Q13547 (whole entry, looked up): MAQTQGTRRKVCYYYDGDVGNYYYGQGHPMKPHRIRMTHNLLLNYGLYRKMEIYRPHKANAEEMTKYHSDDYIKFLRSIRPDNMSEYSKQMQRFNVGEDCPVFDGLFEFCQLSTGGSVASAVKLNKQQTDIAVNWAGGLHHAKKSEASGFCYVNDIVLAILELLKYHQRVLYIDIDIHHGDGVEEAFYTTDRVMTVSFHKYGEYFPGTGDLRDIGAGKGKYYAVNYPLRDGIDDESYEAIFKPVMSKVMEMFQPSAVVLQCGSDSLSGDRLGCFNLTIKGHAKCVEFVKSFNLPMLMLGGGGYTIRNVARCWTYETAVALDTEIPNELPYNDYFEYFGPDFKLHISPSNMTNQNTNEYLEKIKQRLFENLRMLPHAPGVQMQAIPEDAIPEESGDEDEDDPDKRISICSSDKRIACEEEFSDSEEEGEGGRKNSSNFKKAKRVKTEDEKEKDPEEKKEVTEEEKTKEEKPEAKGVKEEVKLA

Cc1ccc(-c2ccc3c(c2)C=C(C(=O)Nc2ccc(C[N+](C)(C)C4CCOCC4)cc2)CCC3)cc1 gave an inhibition of > 70% (CCR5 (Homo sapiens, UniProt P51681); β-arrestin recruitment, antagonist; 1 µM).
COc1cc(-c2cccc(Cc3ncnc4cc(OC)c(OC)cc34)c2)ccc1CO has an inhibition of 49% (PDE10A; enzyme activity, inhibitor, FP; 0.1 µM).
For Cc1ncsc1-c1ccc(CNC(=O)[C@@H]2C[C@@H](O)CN2C(=O)[C@@H](NC(=O)CCCCCCCCNC(=O)CN2CCN(C(=O)c3ccc(Nc4nc(C5CC5)cn5c(-c6cn[nH]c6)cnc45)c(F)c3)CC2)C(C)(C)C)cc1, the inhibition was > 65% (STK33 (Homo sapiens, UniProt Q9BYT3); cell-free assay, competition with immobilised ligand; 1 µM).
The inhibition of CC(C)NCC(O)COc1cccc2ccccc12 (centres unmarked) is reported as 52.8% (SCN1A; ion current, inhibitor, patch clamp; 30 µM).
For COc1cc(-c2cc(=O)c3c(O)cc(O)cc3o2)ccc1O, the inhibition was 0% (PTGS2; enzyme activity, inhibitor; 0.24 µg/mL).
With NC(=O)c1ccc(C(=O)NOCc2ccc(Sc3ccc(C(F)(F)F)cc3)c(C(F)(F)F)c2)cc1 the inhibition was 90.6% (SIRT6; enzyme activity, inhibitor, fluorescence; 100 µM).
CN1CC(Oc2cnc(C#N)cc2-c2ccn3nc(NC(=O)C4CC4)cc3c2)C1 gave an inhibition of 1% (EPHB4 (Homo sapiens, UniProt P54760); enzyme activity, inhibitor; 1 µM).
The inhibition of NC(=O)c1ccc(C(=O)NOCc2ccc(Sc3cccc(C(F)(F)F)c3)c(C(F)(F)F)c2)cc1 is reported as 100% (SIRT6; enzyme activity, inhibitor, fluorescence; 100 µM).
The inhibition of Cc1c(OS(=O)(=O)Oc2ccc(Oc3ccccc3)cc2)cccc1C(=O)NO is reported as 17% (HDAC8; enzyme activity, inhibitor, fluorescence; 10 µM).
For S=C(NN=Cc1ccc(N2CCCCC2)cc1)Nc1cccc(Cl)c1Cl, the inhibition was 74.7% (DHFR; enzyme activity, inhibitor; 500 µM).
Cc1cc(OS(=O)(=O)Oc2ccc(C(C)C)cc2)cc(C(=O)NO)c1 gave an inhibition of 46% (HDAC8; enzyme activity, inhibitor, fluorescence; 10 µM).
COc1ccc2nccc(Cc3cccc(-c4cnn(C)c4)c3)c2c1 gave an inhibition of 8% (PDE10A; enzyme activity, inhibitor, FP; 0.1 µM).
For C[C@H]1O[C@H](O[C@H]2[C@H](O)[C@@H](O)[C@@H](O[C@H]3[C@H](O)[C@@H](O)C(O)O[C@@H]3CO)O[C@@H]2CO)[C@H](O)[C@@H](O)[C@@H]1N[C@H]1C=C(CO)[C@@H](O)[C@H](O)[C@H]1O (some centres unmarked), the inhibition was 63.5% (MAL12 (Saccharomyces cerevisiae S288c, UniProt P53341); enzyme activity, inhibitor, absorbance; 400 µg/mL).
CC(/C=C/C=C(\C)C(=O)O[C@@H]1O[C@H](CO[C@@H]2O[C@H](CO)[C@@H](O)[C@H](O)[C@H]2O)[C@@H](O)[C@H](O)[C@H]1O)=C\C=C\C=C(C)\C=C\C=C(/C)C(=O)O[C@@H]1O[C@H](CO[C@@H]2O[C@H](CO)[C@@H](O)[C@H](O)[C@H]2O)[C@@H](O)[C@H](O)[C@H]1O has an inhibition of 0% (USP51; enzyme activity, inhibitor; 5 µM).
For CNc1cc(Oc2cc(C(=O)Nc3cc(N4CCN(C)CC4)cc(C(F)(F)F)c3)ccc2C)ncn1, the inhibition was -41.8% (SLK (Homo sapiens, UniProt Q9H2G2); target engagement in cells, inhibitor, chemoproteomics; Huh-7; 1 µM).
COc1cc2ncnc(Cc3cccc(-c4ccccc4CO)c3)c2cc1OC gave an inhibition of 44% (PDE10A; enzyme activity, inhibitor, FP; 0.1 µM).
Nc1c(Br)cc(Br)cc1CN[C@H]1CC[C@H](O)CC1 has an inhibition of 14.1% (SCN1A; ion current, inhibitor, patch clamp; 3 µM).
CCOC(=O)[C@@]12C[C@@H]1[C@@H](n1cnc3c(NCCCCCCc4ccccc4)nc(C#Cc4ccc(Cl)s4)nc31)[C@H](O)[C@@H]2O has an inhibition of 10% (SLC6A4 (Homo sapiens, UniProt P31645); ligand displacement, radioligand; 10 µM).
OC[C@H]1OC(O)[C@H](O)[C@@H](O)[C@@H]1O (some centres unmarked) gave an inhibition of 15% (USP51; enzyme activity, inhibitor; 5 µM).
Cc1cc(OS(=O)(=O)Oc2ccc(C(C)(C)C)cc2C)cc(C(=O)NO)c1 has an inhibition of 30% (HDAC8; enzyme activity, inhibitor, fluorescence; 10 µM).
COc1cc([C@H]2OC[C@H]3[C@@H]2CO[C@@H]3c2cc(OC)c(O)c(OC)c2)cc(OC)c1O has an inhibition of 100% (PTGS2; enzyme activity, inhibitor; 31.25 µg/mL).
CC1(C)CC[C@]2(C(=O)O)CC[C@]3(C)C(=CC[C@@H]4[C@@]5(C)CC[C@H](O)C(C)(C)[C@@H]5CC[C@]43C)[C@@H]2C1 has an inhibition of 26% (USP51; enzyme activity, inhibitor; 5 µM).
The inhibition of CC[C@H](C)[C@H](NC(=O)[C@H](CCC(N)=O)NC(=O)[C@H](CC(C)C)NC(=O)[C@H](CCSC)NC(=O)[C@H](CCCCN)NC(=O)[C@H](CO)NC(=O)[C@H](CO)NC(=O)[C@H](CCSC)NC(=O)[C@H](CC(C)C)NC(=O)[C@H](CC(N)=O)NC(=O)[C@@H](NC(=O)[C@@H](NC(=O)[C@H](CO)NC(=O)[C@H](CC(C)C)NC(=O)[C@H](CS)NC(=O)[C@H](CCCNC(=N)N)NC(=O)[C@H](CC(=O)O)NC(=O)[C@H](Cc1c[nH]c2ccccc12)NC(=O)[C@H](Cc1ccccc1)NC(=O)[C@H](C)NC(=O)[C@H](CCC(=O)O)NC(=O)[C@@H](N)CCCCN)C(C)C)[C@@H](C)CC)C(=O)N[C@@H](CC(N)=O)C(=O)N[C@@H](C)C(=O)O is reported as 10% (Cyclin-dependent kinase 5, with p35 (CDK5, Homo sapiens, UniProt Q00535); enzyme activity, inhibitor, radiometric; 50 µM).
For O=C(NO)c1cccc(OS(=O)(=O)Oc2ccc(Oc3ccccc3)cc2)c1, the inhibition was 15% (HDAC6; enzyme activity, inhibitor, fluorescence; 10 µM).
With N=C(N)NCCC[C@H](N)C(=O)O the inhibition was 0% (USP51; enzyme activity, inhibitor; 5 µM).
For NC/C(=C\F)COc1cccc(Cn2c(=S)[nH]c(=O)c3[nH]cnc32)c1, the inhibition was < 50% (CYSLTR1 (Homo sapiens, UniProt Q9Y271); ligand displacement, radioligand; 10 µM).
C=C[C@@]1(C)C=C2CC[C@@H]3[C@](C)(CCC[C@@]3(C)C(=O)O)[C@H]2CC1 gave an inhibition of 39.2% (PTGS2; enzyme activity, inhibitor; 3.9 µg/mL).
The inhibition of Cc1cc(OS(=O)(=O)Oc2ccc(Oc3ccccc3)cc2)cc(C(=O)NO)c1 is reported as 6% (HDAC1; enzyme activity, inhibitor, fluorescence; 10 µM).
O=c1cc(-c2ccc(O)cc2)oc2cc(O)cc(O)c12 gave an inhibition of 6.24% (PTGS2; enzyme activity, inhibitor; 0.24 µg/mL).
With Cc1cc(OS(=O)(=O)Oc2cccc(C(C)(C)C)c2)cc(C(=O)NO)c1 the inhibition was 50% (HDAC6; enzyme activity, inhibitor, fluorescence; 10 µM).
The inhibition of CC[C@H](C)[C@H](NC(=O)[C@H](CCC(N)=O)NC(=O)[C@@H](NC(=O)[C@H](CCSC)NC(=O)[C@H](CCCCN)NC(=O)[C@H](CO)NC(=O)[C@@H](NC(=O)[C@H](CCSC)NC(=O)[C@H](CC(C)C)NC(=O)[C@H](CC(N)=O)NC(=O)[C@@H](NC(=O)[C@@H](NC(=O)[C@H](CO)NC(=O)[C@H](CC(C)C)NC(=O)[C@H](C)NC(=O)[C@H](CCCNC(=N)N)NC(=O)[C@H](CCC(=O)O)NC(=O)[C@H](Cc1ccc(O)cc1)NC(=O)[C@H](Cc1ccccc1)NC(=O)[C@H](C)NC(=O)[C@H](CC(N)=O)NC(=O)[C@@H](N)CCCCN)[C@@H](C)CC)[C@@H](C)CC)[C@@H](C)O)C(C)C)C(=O)N[C@@H](CC(N)=O)C(=O)N[C@H](C(=O)O)C(C)C is reported as -40% (GSK3B (Homo sapiens, UniProt P49841); enzyme activity, inhibitor, radiometric; 500 µM).
For CC(C)c1cccc(OS(=O)(=O)Oc2cc(F)cc(C(=O)NO)c2)c1, the inhibition was 9% (HDAC1; enzyme activity, inhibitor, fluorescence; 10 µM).
The inhibition of CC12CC3CC(C)(C1)CC(N)(C3)C2 is reported as 18.7% (SCN1A; ion current, inhibitor, patch clamp; 30 µM).
With COc1cc2c(c(OC)c1OC)-c1ccc(OC)c(=O)cc1[C@@H](NC(C)=O)CC2 the inhibition was 0% (USP51; enzyme activity, inhibitor; 5 µM).
S=C(NN=Cc1ccc(N2CCCCC2)cc1)Nc1ccc(Br)cc1 has an inhibition of 86.3% (DHFR; enzyme activity, inhibitor; 500 µM).
C[C@H](O)C(=O)O gave an inhibition of 28% (USP51; enzyme activity, inhibitor; 5 µM).
COc1cccc(OS(=O)(=O)Oc2cccc(C(=O)NO)c2)c1 gave an inhibition of 49% (HDAC1; enzyme activity, inhibitor, fluorescence; 5 µM).
With O=c1cc(-c2ccc(O)c(O)c2)oc2cc(O)cc(O)c12 the inhibition was 60.2% (PTGS2; enzyme activity, inhibitor; 0.98 µg/mL).
For Oc1ccc(/C=C/c2cc(O)cc(O)c2)cc1, the inhibition was 0% (USP51; enzyme activity, inhibitor; 5 µM).
COc1ccc(-c2cc(=O)c3c(O)cc(O[C@@H]4O[C@H](CO)[C@@H](O)[C@H](O)[C@H]4O)cc3o2)cc1O gave an inhibition of 100% (PTGS2; enzyme activity, inhibitor; 15.63 µg/mL).
The inhibition of CO[C@H]1O[C@@H]2O[C@@]3(C)CC[C@H]4[C@H](C)CC[C@@H]([C@H]1C)[C@@]24OO3 is reported as 10% (USP51; enzyme activity, inhibitor; 5 µM).

Repeated from above:
Nc1c(Br)cc(Br)cc1CN[C@H]1CC[C@H](O)CC1 has an inhibition of 14.1% (SCN1A; ion current, inhibitor, patch clamp; 3 µM).
CCOC(=O)[C@@]12C[C@@H]1[C@@H](n1cnc3c(NCCCCCCc4ccccc4)nc(C#Cc4ccc(Cl)s4)nc31)[C@H](O)[C@@H]2O has an inhibition of 10% (SLC6A4 (Homo sapiens, UniProt P31645); ligand displacement, radioligand; 10 µM).
OC[C@H]1OC(O)[C@H](O)[C@@H](O)[C@@H]1O (some centres unmarked) gave an inhibition of 15% (USP51; enzyme activity, inhibitor; 5 µM).
Cc1cc(OS(=O)(=O)Oc2ccc(C(C)(C)C)cc2C)cc(C(=O)NO)c1 has an inhibition of 30% (HDAC8; enzyme activity, inhibitor, fluorescence; 10 µM).
COc1cc([C@H]2OC[C@H]3[C@@H]2CO[C@@H]3c2cc(OC)c(O)c(OC)c2)cc(OC)c1O has an inhibition of 100% (PTGS2; enzyme activity, inhibitor; 31.25 µg/mL).
CC1(C)CC[C@]2(C(=O)O)CC[C@]3(C)C(=CC[C@@H]4[C@@]5(C)CC[C@H](O)C(C)(C)[C@@H]5CC[C@]43C)[C@@H]2C1 has an inhibition of 26% (USP51; enzyme activity, inhibitor; 5 µM).
